Assay results collected from several papers.
Protocols differ between the studies behind these lines. Values joined by “and” are separate records of one study, mostly repeats; a detail may differ. Numbers after ± are the reported error.

For Cc1n[nH]c2ccc(-c3cc(OC[C@@H](N)Cc4ccccc4)cnc3-c3ccoc3)cc12, “log2 fold change” read 0.207 (kinase binding, competitor, MIB/MS competition, measured: TOR1; Candida albicans cell lysate; 1 µM; baseline: DMSO).
For CO[C@H]1CC[C@H](N2C(=O)CNc3ncc(-c4ccc(C(C)(C)O)nc4)nc32)CC1, “pAKT change from baseline” read -44.8% (flow cytometry; stimulated monocytes, human, blood; 60 mg single dose, 3 h, mean; baseline: baseline).
NC(=O)/C(=C/n1cnc(-c2cc(C(F)(F)F)cc(C(F)(F)F)c2)n1)c1cncnc1 — result for “median overall survival”: 135 days (C57BL/6 mice, Eµ-TCL1 CLL transplant; 15 mg/kg, 2 times per week).
Cc1sc2c(c1C)C(c1ccc(Cl)cc1)=N[C@@H](CC(=O)NCCCCCCCCNC(=O)COc1cccc3c1C(=O)N(C1CCC(=O)NC1=O)C3=O)c1nnc(C)n1-2 (stereo partly shown) gave an M1 macrophages of 1.83% and 1.86% and 1.89% and 1.94% (flow cytometry; mice, 4T1 tumour, tumour; dose not given).
OC(CCN1CCCCC1)(c1ccccc1)C1CC2C=CC1C2 (stereo not shown) — result for “EEG Alpha1-power Fz-Cz”: 4.7 µV² (resting-state EEG; healthy elderly humans; oral, 2 mg, eyes closed, LS mean).
Cc1cc(-c2nc(C(=O)Nc3cc4oc(N5CCOCC5)nc4nc3N3CC[C@@H](O)C3)co2)ccn1: “pNF-κB p65 positive cells” 4.3% (immunohistochemistry, measured: phospho-NF-κB; mouse, intracranial B16-F10 tumour; dose not given; baseline: total cells).
CC(C)NCC(O)c1ccc(O)c(O)c1 (stereo not shown) has a sarcomere length of 1.5 µm (ventricular cardiomyocytes, C57BL/6 mouse; dose not given, 0.212 s).
For C=CCn1c(=O)c2cnc(Nc3ccc(N4CCN(C)CC4)cc3)nc2n1-c1ccc2c(n1)[C@@](O)(CC)CC2, “tumour growth inhibition” read 51.4% (NCI-H1944 xenograft, NOD/SCID mice; oral, 80 mg/kg, day 28, once daily days 0-9 and 18-27).
COc1ncc(-c2nc3c(n2C(C)C)[C@H](c2ccc(Cl)cc2)N(c2cc(Cl)cn(C)c2=O)C3=O)c(OC)n1: “best overall response” 63.7% (International Working Group criteria; human acute myeloid leukemia patients; dose not given, response TF, all patients).
For NCC(=O)Nc1cncc(-c2nn3c(=O)cc(N4CCNCC4)nc3s2)c1, the inhibition was 1.65% (ADP-induced platelet aggregation, light transmission aggregometry; human, stable CAD on aspirin, ex vivo platelets; subcutaneous, 0.04 mg/kg, 120 min post-dose, median value, with: ADP 20 µM).
For NNC(=O)c1ccncc1, the IL-1β level was 28 pg/mL and 28.9 pg/mL and 28.3 pg/mL (ELISA; Mycobacterium marinum-infected mice, blood; intraduodenal, 10 mg/kg three times daily, 3 days post infection).
With CCCCC1(CCCC)CN(c2ccccc2)c2cc(SC)c(OCC(=O)N[C@@H](C(=O)NCC(=O)O)c3ccccc3)cc2S(=O)(=O)C1 the plasma C4 was 48.3 ng/mL (measured: 7α-hydroxy-4-cholesten-3-one; human, plasma; 10 mg once daily, day 2).
N#Cc1ccn2c(-c3ccncc3)c(-c3ccc(F)cc3)nc2c1: “log2 fold change” 0.313 (kinase binding, competitor, MIB/MS competition, measured: CDC7; Candida albicans cell lysate; 1 µM; baseline: DMSO).
Cc1cc(Nc2cc3ncccc3c(N[C@@H]3C[C@H]4CC[C@@H](C3)N4CCC#N)n2)n[nH]1: “change in stool frequency” -0.4 (moderate-severe ulcerative colitis patients; 80 mg, day 28, Mayo subscore, unit not given; baseline: baseline).
For C[C@H]1C[C@H]2CSC(N)=N[C@@]2(c2nc(NC(=O)c3ccc(OC(F)F)cn3)cs2)CO1, “total plasma Aβ change” read -58.4% (healthy adults, fed, plasma; oral, 200 mg single dose, 24 h; baseline: baseline, placebo-adjusted).
The histology score of Cc1nn(-c2nc3c(F)cc(F)cc3s2)c(O)c1C(c1ccc(C(F)(F)F)cc1)c1c(C)nn(-c2nc3c(F)cc(F)cc3s2)c1O is reported as 2 and 0 and 1 and 3 (measured: pancreatic oedema; mouse, cerulein-induced acute pancreatitis; 25 mg/kg; direction not given).
CC[C@H](C)[C@H](NC(=O)[C@H](C)NC(=O)CNC(=O)[C@H](Cc1ccccc1)NC(=O)[C@H](CC(N)=O)NC(=O)[C@H](CC(N)=O)NC(=O)[C@H](CO)NC(=O)[C@H](CO)NC(=O)[C@H](Cc1c[nH]cn1)NC(=O)[C@@H](NC(=O)[C@H](CC(C)C)NC(=O)[C@H](Cc1ccccc1)NC(=O)[C@H](CC(N)=O)NC(=O)[C@H](C)NC(=O)[C@H](CC(C)C)NC(=O)[C@H](CCCNC(=N)N)NC(=O)[C@H](CCC(N)=O)NC(=O)[C@@H](NC(=O)[C@H](C)NC(=O)[C@@H]1CSSC[C@H](NC(=O)[C@@H](N)CCCCN)C(=O)N[C@@H](CC(N)=O)C(=O)N[C@@H]([C@@H](C)O)C(=O)N[C@@H](C)C(=O)N[C@@H]([C@@H](C)O)C(=O)N1)[C@@H](C)O)C(C)C)C(=O)N[C@@H](CC(C)C)C(=O)N[C@@H](CO)C(=O)N[C@@H](CO)C(=O)N[C@H](C(=O)N[C@@H](CC(N)=O)C(=O)N[C@H](C(=O)NCC(=O)N[C@@H](CO)C(=O)N[C@@H](CC(N)=O)C(=O)N[C@H](C(=O)N[C@@H](Cc1ccc(O)cc1)C(N)=O)[C@@H](C)O)C(C)C)[C@@H](C)O: “total insulin content” 0.565 and 0.537 (ELISA; isolated mouse islets; 10 µM, 24 h, unit not given; baseline: control).
The Fe2+ chelation of CCCCCCCCCCC1NCCc2cc(O)c(O)cc21 (stereo not shown) is reported as 23.6 ± 4.32% (ferrozine; cell-free; 100 µM, DMSO solvent).
Under “change from baseline”, Cc1cn(-c2ccc3n(c2=O)CCN([C@@H](C)[C@@H]2CC[C@H](c4cc(F)c(Cl)cc4C(F)(F)F)O2)C3=O)cn1 is recorded as 44.6% (measured: amyloid beta 38; human, non-elderly, cerebrospinal fluid; 360 mg once daily, 14 days, sampled 336 h; baseline: placebo).
Cn1cc([C@H]2C[C@H]3CSC(N)=N[C@@]3(c3ccc(F)cc3F)CO2)cn1 gave an Aβ40 level of 0.1 ng/g (measured: Aβx-40; wild-type mouse, plasma; subcutaneous, 3 mg/kg, 3 h).
For CC[C@@H]1[C@H](F)C(=O)N[C@@H]1COc1nccc2cc(C(N)=O)c(OC)cc12, the inhibition was -10.6% (ATP-site probe binding, ActivX profiling, measured: ROCK1, ROCK2; THP-1 cell lysate; 0.2 mM, Lys2 site).
O=C(O)CNC(=O)Cc1ccccc1 has a sarcomere length of 1.65 µm (ventricular cardiomyocytes, C57BL/6 mouse; dose not given, 0.588 s).
With CC1(C)CCC(c2ccc(Cl)cc2)=C(CN2CCN(c3ccc(C(=O)NS(=O)(=O)c4ccc(N[C@H](CCN5CCOCC5)CSc5ccccc5)c(S(=O)(=O)C(F)(F)F)c4)cc3)CC2)C1 the EC50 was 1470 nM (cell kill, PI exclusion flow cytometry; neoplastic B cells, human, thawed lymph node; 24 h).
CN[C@@H]1COc2c(S(=O)(=O)NC(=O)Nc3c4c(cc5c3CCC5)CCC4)cnn2C1 gave an inhibition of 94.2% (measured: IL-18; human participants, whole blood ex vivo; 300 mg twice daily, multiple doses, 1 h, IL-18, circulating, adjusted for, with: LPS/ATP; baseline: baseline).
The inhibition of CSCCNc1nc(SCCC(F)(F)F)nc2c1ncn2[C@@H]1O[C@H](COP(=O)(O)OP(=O)(O)C(Cl)(Cl)P(=O)(O)O)[C@@H](O)[C@H]1O is reported as 19.1 ± 16.3% (platelet aggregation, light transmission aggregometry; human patients, platelet-rich plasma; dose not given, 15 min, with: TRAP 15 µM).
Under “complete response, best response”, O=C1Nc2cc3[nH]nc(-c4ccncc4)c3cc2CN1Cc1ccccc1 is recorded as 0% (RECIST v1.1; human, relapsed or refractory advanced solid tumours; intravenous, 7.2 mg/kg, pooled schedules).
COc1cc2cc(-c3ccc(CC(=O)Nc4cc(C(C)(C)C(F)(F)F)no4)cn3)cnc2cc1OC — result for “partial response as best response”: 33% (RECIST v1.1; RET-altered advanced solid tumour patients; oral, 40 mg once daily, phase I).
For O=C(COc1ccc(Cl)cc1)NC12CC(c3nnc([C@H]4C[C@@H](OC(F)(F)F)C4)o3)(C1)C2, “ATF4 protein change” read -51.1% (healthy human, PBMC; oral, 800 mg single dose, day 1, 4 h post-dose, median, with: sodium arsenite ex vivo; baseline: baseline).
CC1(C)CCC2(CC1)N[C@@H](C(=O)N[C@@H]1CC[C@@H](C(N)=O)OC1)[C@H](c1ccnc(Cl)c1F)[C@]21C(=O)Nc2cc(Cl)ccc21 gave a stable disease of 33.3% (human, solid tumours; 120 mg/day, RECIST; baseline: patients).
O=C(/C=C/c1ccc(O)c(O)c1/C=C/c1ccc(O)c(O)c1)O[C@H](Cc1ccc(O)c(O)c1)C(=O)O has an LVSP of 55.3 mmHg (isolated myocardial tissue; 10 µM).
c1ccc(-c2n[nH]cc2-c2ccnc3ccccc23)nc1 — result for “log2 fold change”: 1.76 (kinase binding, competitor, MIB/MS competition, measured: AKL1; Candida albicans cell lysate; 10 µM; baseline: DMSO).
Under “median response score”, COc1cc(Nc2ncc3c(n2)-c2ccc(Cl)cc2C(c2c(F)cccc2OC)=NC3)ccc1C(=O)O is recorded as 2 (mouse, OS-1 osteosarcoma xenograft; 10.4 mg/kg; direction not given).
COc1ccccc1[C@H](Cn1c(=O)n(C(C)(C)C(=O)O)c(=O)c2c(C)c(-c3ncco3)sc21)OC1CCOCC1 gave a blood ketones of 0.14 ± 0.052 mmol/L (human; 200 mg, post-treatment).
NC(=O)c1cnc2[nH]ccc2c1N[C@@H]1[C@@H]2CC3C[C@H]1C[C@@](O)(C3)C2 — result for “change from baseline”: 1.02% (flow cytometry, measured: memory T cells (CD3+ CD45RA-); Japanese healthy subjects, peripheral blood; oral, 10 mg twice daily, day 4).
C[C@H](Oc1ccc(Br)cc1-c1ccon1)C(=O)O — result for “difference from placebo”: 1.38% (first response peak; human, tibialis anterior muscle; 50 mg, 30-15 Hz, SAD).
O=C(c1cc(Cc2n[nH]c(=O)c3ccccc23)ccc1F)N1CCN(C(=O)C2CC2)CC1: PAR concentration “decreased” (measured: poly(ADP-ribose); human patient, PBMC; dose not given, 24 h; baseline: baseline).
Under “pure-tone average, left ear”, CC(C)[C@H](C(=O)Nc1ccc(C(=O)NO)cc1)c1ccccc1 is recorded as 77 dB (human; 1.7 4 weeks after dosing; higher = worse hearing).
Under “C-peptide AUC change”, N#Cc1ccc2c(c1)[C@H]1CCCN(C(=O)c3ccc4[nH]cnc4c3)[C@H]1C2 is recorded as 0.14 pmol/h/L (meal tolerance test; human, Phase II trial; 80 mg once daily, day 28, AUC0-2 h, adjusted mean; baseline: baseline).
For C1#Cc2ccccc2C#Cc2ccccc21, “second-order rate constant” read 0.0482 M⁻¹ s⁻¹ and 0.0481 M⁻¹ s⁻¹ (UV spectroscopy; methanol; room temperature, with: benzyl azide).
For O=C(O)/C=C/c1ccc(Cn2ccnc2)cc1, the platelet aggregation was 29.6% (rat, MCAO/R model, platelet-rich plasma; intravenous, dose not given, 4 h, with: ADP 10 µM).
COc1cc(C2NCCc3cc(O)c(O)cc32)cc(OC)c1O (stereo not shown) has a Fe2+ chelation of 92.85 ± 0.4% (ferrozine; cell-free; 100 µM, DMSO solvent).
Under ear edema, COc1ccccc1C(=O)NCc1ccc(CNS(=O)(=O)c2ccccc2)cc1 is recorded as “no effect” (xylene-induced ear edema; mouse; intraperitoneal, 10 mg/kg).
For Cn1cc(Nc2nccc(-c3ccc4c(c3)CN(C3COC3)CC[C@H]4NC(=O)c3cn(C(C)(C)C)nn3)n2)cn1, “pathway activation z-score” read -1.13 (measured: MIF-mediated glucocorticoid regulation; splenic B cells, mice; 30 mg/kg, IgD-activated in vivo; baseline: vehicle, direction not given).
The inhibition of O=C1O[C@H]([C@@H](O)CO)C(O)=C1O is reported as 28.6% (nitric oxide scavenging; 40 µM).
N#Cc1ccc2c(-c3ccncc3)c(-c3ccc(F)cc3)nn2c1: “log2 fold change” -0.142 (kinase binding, competitor, MIB/MS competition, measured: SAK1; Candida albicans cell lysate; 1 µM; baseline: DMSO).
CN(C(=O)n1cnc(-c2ccc[n+]([O-])c2)c1)C1CCCCC1: “change in licking score” -28% (mice, formalin paw test; oral, 1 mg/kg, late phase; baseline: vehicle, direction not given).

For quick reference, copied from above:
O=C(O)CNC(=O)Cc1ccccc1 has a sarcomere length of 1.65 µm (ventricular cardiomyocytes, C57BL/6 mouse; dose not given, 0.588 s).
With CC1(C)CCC(c2ccc(Cl)cc2)=C(CN2CCN(c3ccc(C(=O)NS(=O)(=O)c4ccc(N[C@H](CCN5CCOCC5)CSc5ccccc5)c(S(=O)(=O)C(F)(F)F)c4)cc3)CC2)C1 the EC50 was 1470 nM (cell kill, PI exclusion flow cytometry; neoplastic B cells, human, thawed lymph node; 24 h).
CN[C@@H]1COc2c(S(=O)(=O)NC(=O)Nc3c4c(cc5c3CCC5)CCC4)cnn2C1 gave an inhibition of 94.2% (measured: IL-18; human participants, whole blood ex vivo; 300 mg twice daily, multiple doses, 1 h, IL-18, circulating, adjusted for, with: LPS/ATP; baseline: baseline).
The inhibition of CSCCNc1nc(SCCC(F)(F)F)nc2c1ncn2[C@@H]1O[C@H](COP(=O)(O)OP(=O)(O)C(Cl)(Cl)P(=O)(O)O)[C@@H](O)[C@H]1O is reported as 19.1 ± 16.3% (platelet aggregation, light transmission aggregometry; human patients, platelet-rich plasma; dose not given, 15 min, with: TRAP 15 µM).
Under “complete response, best response”, O=C1Nc2cc3[nH]nc(-c4ccncc4)c3cc2CN1Cc1ccccc1 is recorded as 0% (RECIST v1.1; human, relapsed or refractory advanced solid tumours; intravenous, 7.2 mg/kg, pooled schedules).
COc1cc2cc(-c3ccc(CC(=O)Nc4cc(C(C)(C)C(F)(F)F)no4)cn3)cnc2cc1OC — result for “partial response as best response”: 33% (RECIST v1.1; RET-altered advanced solid tumour patients; oral, 40 mg once daily, phase I).
